Published values collected from several papers.
Parts stem from different laboratories: compare values within a part only. Several values in a cell are separate wells, animals, samples, runs or records.

Block 1
Cell line: mouse MPNST tumor cells
Technique: high-content nuclear imaging
Measured: cell number
Tested at: 10 µM
Time: 12 h
Notes: mean of 2 replicates
Baseline: plate mean
Direction: higher = more cells
Endpoint: nuclei count
CCCc1c(-c2ccc(O)cc2)nn(-c2ccc(O)cc2)c1-c1ccc(O)cc1: 1.77 z-score
CC[C@H]1Cn2nc(-c3ccc(Cl)cc3Cl)c3nc(C)cc(c32)N1CC1CC1: -3.79 z-score
Oc1nc(-c2ccc(C(F)(F)F)cc2)nc2c1CSCC2: -0.214 z-score

Block 2
Cell line: A-375
Tested at: 100 µM
Time: 36 h
Endpoint: viability
N=C(N/N=C/c1ccc(Cl)cc1)N/N=C/c1ccc(Cl)cc1: 2.74%
CC(C)(F)C[C@H](N[C@@H](c1ccc(-c2ccc(S(C)(=O)=O)cc2)cc1)C(F)(F)F)C(=O)NC1(C#N)CC1: 92.8%
C[N+]1(C)CCCC(OC(=O)C(O)(c2ccccc2)c2ccccc2)C1 (stereo not drawn): 113%
CCOC(=O)Nc1ccc(NCc2ccc(F)cc2)nc1N: 104%
CC(C)Oc1ccc2c(=O)c(-c3ccccc3)coc2c1: 75.5%

Block 3
Target: 5-hydroxytryptamine receptor 1E (HTR1E, Homo sapiens, UniProt P28566)
Sequence of UniProt P28566 (whole entry, looked up): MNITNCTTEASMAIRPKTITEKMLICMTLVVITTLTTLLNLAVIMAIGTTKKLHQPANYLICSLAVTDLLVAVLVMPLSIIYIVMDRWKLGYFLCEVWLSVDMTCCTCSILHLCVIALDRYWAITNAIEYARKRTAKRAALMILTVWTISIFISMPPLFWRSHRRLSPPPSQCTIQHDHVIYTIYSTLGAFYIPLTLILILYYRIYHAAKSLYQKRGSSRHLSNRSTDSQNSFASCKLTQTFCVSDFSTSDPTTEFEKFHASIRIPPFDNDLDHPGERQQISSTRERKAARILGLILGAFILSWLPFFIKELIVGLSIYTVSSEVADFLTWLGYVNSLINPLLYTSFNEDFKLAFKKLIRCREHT
Observed: cell-free assay
Tested at: 10 µM
Endpoint: inhibition
Nc1nc(NCc2ccccc2)nc(-c2cccc(CO)c2)n1: -23.9%
CC(=O)Nc1ncc(CN2CCC[C@H](Cc3cc(C)nc(C)c3)C2)s1: -11%
O=C(Nc1cccnn1)N1CC(CC=Cc2cncc(Oc3ccc(C(F)(F)F)cn3)n2)C1: 0.84%
O=C(NCCCC1CCCCC1)c1ccc(CNC(=O)c2cnn(-c3ccccc3)c2C(F)(F)F)cc1: -6.92%
NS(=O)(=O)c1cc(NC(=O)Cc2ccccc2)ccc1Oc1cccc(Cl)c1: -12.7%
CS(=O)(=O)N1CCCC(NC(=O)[C@H](CCC2CCCCC2)NC(=O)c2ccc(CNC(=O)c3cnc4ccccn34)cc2)C1 (stereo partly drawn): -16.9%
CN1C(=O)[C@@H](N2CCc3cn(Cc4ccccc4)nc3C2=O)COc2ccccc21: -1.55%
Nc1c(C(=O)NCc2ccc(C(=O)NCCCC3CCCCC3)cc2)cnn1-c1ccccc1: 1%
Cc1cc(C)c(-n2ccn3nc(-c4cccnc4)cc23)cc1NC(=O)c1cc(C#N)cc(S(F)(F)(F)(F)F)c1: 3.57%

Other studies, line by line
COc1ccc(-c2c(Nc3ccccn3)[nH]c3c(C4=CCCCC4)c(-c4ccccc4)nn3c2=O)cc1 — percent change from baseline (measured: S-adenosylmethionine; human, plasma; oral, 200 mg twice daily, cycle 1 day 15): -64.3% and -69.3% and -75.6%

Repeated from above (block 2):
CC(C)(F)C[C@H](N[C@@H](c1ccc(-c2ccc(S(C)(=O)=O)cc2)cc1)C(F)(F)F)C(=O)NC1(C#N)CC1: 92.8%
CCOC(=O)Nc1ccc(NCc2ccc(F)cc2)nc1N: 104%
